Measurements collected from several papers.
Protocols differ between the studies behind these lines. “And” joins repeats or separate records; there may be more than shown. ± gives the spread as reported.
rep main protease: Replicase polyprotein 1ab, main protease (rep, Severe acute respiratory syndrome coronavirus 2, UniProt P0DTD1)
Spike glycoprotein: Spike glycoprotein (Severe acute respiratory syndrome coronavirus 2, UniProt P0DTC2)

| Structure (SMILES) | target or system | assay | test system | conditions | how to read | endpoint | result |
| --- | --- | --- | --- | --- | --- | --- | --- |
| CCc1c(C(=O)C(N)=O)c2c(OCC(=O)O)cccc2n1Cc1ccccc1 | Daboia russelii venom phospholipase A2 | enzyme activity, inhibitor | PB population | 0.1 µM, together with: NOB substrate | reference: venom alone | remaining activity | 95% and 90% and 96% |
| Cc1[nH]cnc1C(=O)NC[C@H](NC(=O)c1c(Cl)ccnc1F)c1ccc2ccccc2c1 | rep main protease | enzyme activity, inhibitor |  | 5 µM, mean of runs |  | inhibition | 11% |
| Nc1ncnc2c([C@@H]3N[C@H](CO)[C@@H](O)[C@H]3O)c[nH]c12 | Sudan ebolavirus | viral replication | HeLa, Boniface | 100 µM |  | inhibition | 87.4% |
| Cc1nc(N)c2ccn(C3CCN(C(=O)c4ccc(S(=O)(=O)F)cc4)CC3)c2n1 | cya (Bacillus anthracis, UniProt P40136) |  |  |  |  | kinact | 0.00215 s⁻¹ |
| O=C(c1cncc2[nH]cnc12)N1CC[C@]2(CCCCN(C(=O)[C@H]3C[C@@H]4C=CC[C@@H](C4)C3)C2)C1 | rep main protease | enzyme activity, inhibitor |  | 5 µM, mean of runs |  | inhibition | 10.9% |
| CCCN(CCC)CCNC(=O)c1cc(-c2ccc(Br)s2)nc2ccccc12 | SARS-CoV-2 | cytopathic effect, cell-based CPE | USA_WA1/2020 |  |  | AC50 | 11.2 µM |
| c1ccc(C(NCc2cccnc2)(c2ccccc2)c2ccccc2)cc1 | Kcnq5 (Rattus norvegicus, UniProt F1LY25) | whole-cell patch clamp | rat calyx of Held neurons | 10 µM |  | potentiation | 8 ± 2% |
| OCC1(O)COc2cc(O)ccc2-c2cc(O)c(O)cc2C1 (stereo not drawn) | Spike glycoprotein | binding, biolayer interferometry |  |  |  | koff | 0.0057 s⁻¹ |
| O=C(NCC[C@H]1CCCN(C(=O)c2ccc(-c3cnc[nH]3)cc2)C1)c1ccc2n[nH]c(=O)n2c1 | rep main protease | enzyme activity, inhibitor |  | 5 µM, run 1 |  | inhibition | 12.4% |
| CCCc1cc(=O)[nH]c(SCC(=O)Nc2ccc(OC(F)F)cc2)n1 | rep main protease | viral replication, mKate2 reporter | SARS-CoV-2 | 20 µM |  | inhibition | -0.241% |
| O=C(Cn1c(O)ccc1O)N[C@@H]1CCCCC12CCN(C(=O)c1cncc3[nH]cnc13)CC2 | rep main protease | enzyme activity, inhibitor |  | 5 µM, run 1 |  | inhibition | 13.8% |
| COc1cc2c(cc1O)[C@@H](Cc1ccc(O)c(Oc3ccc(C[C@@H]4c5cc(OC)c(OC)cc5CCN4C)cc3)c1)N(C)CC2 | Spike glycoprotein | binding, biolayer interferometry |  |  |  | kon | 307 M⁻¹ s⁻¹ |
| Nc1ccccc1-c1noc(-c2ccncc2)n1 | Replicase polyprotein 1ab, papain-like protease (rep, Severe acute respiratory syndrome coronavirus 2, UniProt P0DTD1) |  |  |  |  | lipophilic ligand efficiency | 1.34 |
| COP(=O)(OC)OC=C(Cl)Cl | rat CYP1A | ethoxyresorufin O-deethylation, non-competitive inhibitor | rat Sprague-Dawley, liver microsomes | 15 min, pH 7.4, together with: ethoxyresorufin 0.82 to 4.1 µM |  | Ki | 657 ± 70 µM |
| CC(C)=CCc1c(O)ccc(C(=O)/C=C/c2ccc(O)cc2)c1O | Spike glycoprotein | binding, BLI |  |  |  | koff | 0.0339 s⁻¹ |
| CCOC1=C(O)C(=O)O[C@@H]1[C@@H](O)CO | rep main protease | reporter gene (Gaussia luciferase), inhibitor |  | 20 µM |  | inhibition | 1.54% |
| O=C(NCCCN1CCCCCC1)c1ccc2c(c1)sc1nc(-c3ccccc3)cn12 | SARS-CoV-2 | cytopathic effect, cell-based CPE | USA_WA1/2020 | round 2, 5-point dilution |  | AC50 | 12.6 µM |
| CC(C)Cc1ccc([C@H](C)C(=O)O)cc1 | rep main protease | reporter gene (mKate2), inhibitor |  | 20 µM |  | inhibition | 0.136% |
| Cn1cnc(Cn2c(=O)[nH]/c(=N\c3cc4cn(C)nc4cc3Cl)n(Cc3cc(F)c(F)cc3F)c2=O)n1 |  |  | human, normal renal function | oral, 375 mg, treatment-related dry mouth, Severe severity |  | patients with adverse event | 0% |
| C[C@@]1(c2cc(-c3cncnc3)c(F)cc2F)CCSC(N)=N1 | rep main protease | reporter gene (mKate2), inhibitor |  | 20 µM |  | inhibition | 0.102% |
| CC[C@H](C)[C@H](NC(=O)[C@H](CC(C)C)NC(=O)[C@H](Cc1c[nH]c2ccccc12)NC(=O)[C@H](CCC(N)=O)NC(=O)[C@@H](NC(=O)[C@H](Cc1ccccc1)NC(=O)[C@H](C)NC(=O)[C@H](CCCCNC(=O)COCCOCCNC(=O)COCCOCCNC(=O)CC[C@H](NC(=O)CCCCCCCCCCCCCCCCCCC(=O)O)C(=O)O)NC(=O)[C@H](CCC(N)=O)NC(=O)[C@H](C)NC(=O)[C@@H](NC(=O)[C@H](CCCCN)NC(=O)[C@H](CC(=O)O)NC(=O)[C@H](CC(C)C)NC(=O)C(C)(C)NC(=O)[C@@H](NC(=O)[C@H](CO)NC(=O)[C@H](Cc1ccc(O)cc1)NC(=O)[C@H](CC(=O)O)NC(=O)[C@H](CO)NC(=O)[C@@H](NC(=O)[C@H](Cc1ccccc1)NC(=O)[C@@H](NC(=O)CNC(=O)[C@H](CCC(=O)O)NC(=O)C(C)(C)NC(=O)[C@@H](N)Cc1ccc(O)cc1)[C@@H](C)O)[C@@H](C)O)[C@@H](C)CC)[C@@H](C)CC)C(C)C)C(=O)N[C@@H](C)C(=O)NCC(=O)NCC(=O)N1CCC[C@H]1C(=O)N[C@@H](CO)C(=O)N[C@@H](CO)C(=O)NCC(=O)N[C@@H](C)C(=O)N1CCC[C@H]1C(=O)N1CCC[C@H]1C(=O)N1CCC[C@H]1C(=O)N[C@@H](CO)C(N)=O |  | measured: anti-drug antibodies | healthy subjects | 4.5 mg, postbaseline, multiple ascending dose, titre increase ≥4-fold |  | subjects with treatment-boosted ADA | 0% |

Excerpt of the above:
| Structure (SMILES) | target or system | assay | test system | conditions | how to read | endpoint | result |
| --- | --- | --- | --- | --- | --- | --- | --- |
| CCc1c(C(=O)C(N)=O)c2c(OCC(=O)O)cccc2n1Cc1ccccc1 | Daboia russelii venom phospholipase A2 | enzyme activity, inhibitor | PB population | 0.1 µM, together with: NOB substrate | reference: venom alone | remaining activity | 95% and 90% and 96% |
| Cc1[nH]cnc1C(=O)NC[C@H](NC(=O)c1c(Cl)ccnc1F)c1ccc2ccccc2c1 | rep main protease | enzyme activity, inhibitor |  | 5 µM, mean of runs |  | inhibition | 11% |
